Measured values of several laboratories.
Parts stem from different laboratories: compare values within a part only. Substitutions count along the parent as printed.

Study 1
Target: CCNE2, cyclin fold, Cln2 fusion (human)
Technique: yeast growth competition, sequencing
Sample: yeast
Notes: weak parent motif
Baseline: not given
Reading: higher = stronger binding
Quantity: normalised enrichment score
Parent: SAMHD1 docking peptide (human); ASKSRVQLFKDDP; partner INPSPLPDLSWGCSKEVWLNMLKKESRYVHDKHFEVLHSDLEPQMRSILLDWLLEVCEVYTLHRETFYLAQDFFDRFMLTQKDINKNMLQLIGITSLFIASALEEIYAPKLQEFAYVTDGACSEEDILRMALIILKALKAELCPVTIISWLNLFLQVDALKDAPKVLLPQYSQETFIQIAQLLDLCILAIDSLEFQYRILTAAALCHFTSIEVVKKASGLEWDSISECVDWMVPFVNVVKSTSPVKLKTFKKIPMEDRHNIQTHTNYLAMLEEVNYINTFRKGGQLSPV
ASTSRVQLFKDDP [K3T]: -0.159
ASKSRVQLFMDDP [K10M]: 0.288
AEKSRVQLFKDDP [S2E]: 0.259
ASKSFVQLFKDDP [R5F]: 0.13
AYKSRVQLFKDDP [S2Y]: 0.198
ASKSRVQLFKDMP [D12M]: 0.0388
ASKSRVQLFKPDP [D11P]: 0.576
ASKSKVQLFKDDP [R5K]: 0.251
ASKSRMQLFKDDP [V6M]: 0.0731
ASKSRVQLFGDDP [K10G]: 0.189
ASKSRQQLFKDDP [V6Q]: -0.475
ASKVRVQLFKDDP [S4V]: 2.02
ASKFRVQLFKDDP [S4F]: 0.53
ASKSRVWLFKDDP [Q7W]: 0.435
ASKSRAQLFKDDP [V6A]: 0.21
ASKSAVQLFKDDP [R5A]: -0.00718
ASKSRVQLFKYDP [D11Y]: 0.611
ASKSRDQLFKDDP [V6D]: -0.389

Study 2
Target: RNA binding protein fox-1 homolog 2, RRM domain, GST-SBP tag (RBFOX2, Homo sapiens, UniProt O43251-10, residues 100-194)
Technique: RNA Bind-n-Seq
Molecule type: RNA
Sample: in vitro
Tested at: 365 nM
Notes: natural RNA segment, single round, ends assumed
Baseline: no-protein control
Reading: higher = stronger binding
Quantity: RBNS enrichment (R)
Shared flanks, not repeated: GGGAGUUCUACAGUCCGACGAUC … UGGAAUUCUCGGGUGCCAA
Construct (chain): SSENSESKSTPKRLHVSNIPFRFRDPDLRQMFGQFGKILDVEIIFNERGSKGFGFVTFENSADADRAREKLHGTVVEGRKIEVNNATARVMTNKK
UGUCUGUGCAAGGCACUACAGCUAUUCACGUGGAGUUACCGCUGCAUUUUCAAAGGUCGGAGAUCUUUCUUCUGCCUGAGUUGGUCAUGUAGCAAUUUUUUCCUAAACAC: 0.25
ACCACCCCGGCCCCCUGCCCGUUCUUGAAAUGUAGGCAUCAUGCAUGUCAAACAUGAGAUGUGUGGACUGUGGCACUUGCCUGGGUCACACACGGAGGCAUCCUACCCUU: 1.08
GGGUGGACAUUAGGGUAGGGUGAGGUCAACCUAAUACUGACUUGUCAGUAUCUCCAGCUCUGAUUACCUUUGAAGUGUUCAGAAGAGACAUUGUCUUCUACUGUUCUGCC: 0.674
GACAUGGCAUGAAGCCAGAGAGUGAGAGACAUUAACUCAUUAGACUGGAACUUGAACUGAUUCACAUCUCAUUUUUCCGUAAAAAUGAUUUCAGUAGCACAAGUUAUUUA: 0.693
AGUUCCUUUGAUAUCUGAGUUUAUUCAACAGUUCUUGGGUUUAGCAAACCCAAAAUAUUUUAUUAAGAAACUGUUUCAAAGAUAAAUUUGCACUGCUCCUUUUUCUUGCC: 0.559
CAGUAGACCGUUGGCUCUUUCCUUUGUGCACAUGUGACCCUUGCUAAUGUGAUGGAUGUGUCUGGUAAUGCGAAACAACUUAUUUCCGUCUACUGCUCAGCACUUUGGUA: 0.865
GAACCUGCUUCCUCUCCCUUCCAAAGACAGUGACAGCUGACUGAGGGCAAAGAGCAGGCACCACUCAGAACGUGGUGAGUACAGCUCAGCUCAGCACUCAGUCAGUGGUA: 0.636
CGAUUCCUUCUGUAUGUCAUUCUUGUUAACAAGACCAUAACCUCCCCGACCUGACACCUCAUAUGAUCUCUGCUUCUAAAAAUCAGGUGUGAUCCUACUUGAAAACAACC: 0.325

Study 3
Target: Sal-like protein 4, full length isoform B (SALL4, Homo sapiens, UniProt Q9UJQ4-2, residues 1-616)
Technique: universal PBM
Molecule type: double-stranded DNA, one strand shown
Sample: in vitro
Tested at: not given
Notes: 8-mer, flanks averaged, mean of replicates
Reading: higher = stronger binding
Quantity: E-score
ATTCGGAA: 0.0254
CTTATCAC: 0.0352
AACCCAAA: 0.0374
GGGAACCC: -0.308
CGAGCGAC: -0.196
ATCGTGAC: 0.0269
ACGCTAAA: 0.18
GCGAGCAC: -0.185
ACTTTCAA: 0.201
CAACGGCG: -0.288
ACCATGCA: 0.00729
CATGGGCG: -0.313
TATGCCCA: -0.0706
GGTCCACC: -0.312
CCCGTACG: -0.219
ACTAGCTC: -0.0625
CGGCCCTA: -0.286
AGCCCTAT: -0.0158
CCCCAGAA: -0.234
AGACTCCC: -0.214
AGGGAGAG: -0.0257
CTCTTGTA: 0.113
CGATAAGA: 0.102
ACGTCAAC: 0.0313
ACAGGTCA: -0.188

Study 4
Target: Interferon regulatory factor 7, full length, phosphomimetic (IRF7, Homo sapiens, UniProt Q92985, residues 1-503, S471D/S472D/S475D/S476D/S477D/S483D/S484D/S487D)
Sequence of UniProt Q92985 (whole entry, unmodified, looked up): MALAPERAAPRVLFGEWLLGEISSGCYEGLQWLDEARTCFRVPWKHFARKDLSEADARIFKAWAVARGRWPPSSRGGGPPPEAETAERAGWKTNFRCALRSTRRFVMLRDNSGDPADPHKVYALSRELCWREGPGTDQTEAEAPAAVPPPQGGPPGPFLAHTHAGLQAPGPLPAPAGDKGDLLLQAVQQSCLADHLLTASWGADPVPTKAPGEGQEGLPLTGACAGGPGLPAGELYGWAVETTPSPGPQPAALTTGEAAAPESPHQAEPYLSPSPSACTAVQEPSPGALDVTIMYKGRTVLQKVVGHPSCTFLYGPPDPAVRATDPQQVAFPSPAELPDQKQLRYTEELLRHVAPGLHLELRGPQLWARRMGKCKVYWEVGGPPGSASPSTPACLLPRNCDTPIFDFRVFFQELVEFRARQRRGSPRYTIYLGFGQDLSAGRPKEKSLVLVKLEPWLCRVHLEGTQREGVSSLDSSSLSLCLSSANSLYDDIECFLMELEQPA
Technique: protein-binding microarray
Molecule type: double-stranded DNA, one strand shown
Sample: in vitro
Tested at: 2200 nM top
Notes: 60-bp whole probe
With: salmon DNA 0.4 mg/ml
Baseline: random background probes
Reading: higher = stronger binding
Quantity: fitted relative affinity
Shared flanks, not repeated: GCCTAGCAC … GTCTTGATTCGCTTGACGCTGCTG
TTAGGTATCCTTATCCTTGAGTGCTAG: 0.515 z-score
TTACATCTCAGTCTCGATTAGTGCTAG: 1.23 z-score
TTAGTTCTCCTACTGCTTTAGTGCTAG: 1.47 z-score
TTAGGTTACCTTTCCCTTTAGTGCTAG: 2.69 z-score
TTAGGTTTCGGTTCTGGTTAGTGCTAG: 11.3 z-score
CTATGAAGTCATGTCTTCAGGTGCTAG: 0.298 z-score
GACGGTTTCGACTTTCGGCACGTGCTA: 7.53 z-score
GACGGTTGCGGTATCGGGACGTGCTAG: 0.185 z-score
ATAGATTTCGGGTTTCGATTAGTGCTA: 6.47 z-score
TTAGGTATCGATCTCGGTTAGTGCTAG: 0.822 z-score
TTAGGTTTCCTTTTCCTTAAGTGCTAG: 5.84 z-score
TCAGTTTTCATTATTGCACTGTGCTAG: 3.12 z-score
TTAGGTTTCGGGTCTGGGTTAGTGCTA: 6.87 z-score
TTAGGTTTCAGTTCCGATTAGTGCTAG: 3.81 z-score
CTCCTTCAGTATCCTTAGATGTGCTAG: 1.71 z-score
TCAATTTTCCCCTACTGACTGTGCTAG: 2.18 z-score
TTAGTACTGAGTATCGATTAGTGCTAG: 0.379 z-score
GACGGGTTCCTTATCCTGACGTGCTAG: 0.761 z-score
GACGATATCAGTTTCGACACGTGCTAG: 3.1 z-score

Repeated from above (study 3):
ACGTCAAC: 0.0313
GGGAACCC: -0.308
AGCCCTAT: -0.0158
AACCCAAA: 0.0374
ACGCTAAA: 0.18
ACAGGTCA: -0.188
CTTATCAC: 0.0352
CATGGGCG: -0.313
AGGGAGAG: -0.0257
ACCATGCA: 0.00729
AGACTCCC: -0.214
